Measurements from different studies.
Parts stem from different laboratories: compare values within a part only.
Chain of UniProt P10721 (whole entry, unmodified, looked up): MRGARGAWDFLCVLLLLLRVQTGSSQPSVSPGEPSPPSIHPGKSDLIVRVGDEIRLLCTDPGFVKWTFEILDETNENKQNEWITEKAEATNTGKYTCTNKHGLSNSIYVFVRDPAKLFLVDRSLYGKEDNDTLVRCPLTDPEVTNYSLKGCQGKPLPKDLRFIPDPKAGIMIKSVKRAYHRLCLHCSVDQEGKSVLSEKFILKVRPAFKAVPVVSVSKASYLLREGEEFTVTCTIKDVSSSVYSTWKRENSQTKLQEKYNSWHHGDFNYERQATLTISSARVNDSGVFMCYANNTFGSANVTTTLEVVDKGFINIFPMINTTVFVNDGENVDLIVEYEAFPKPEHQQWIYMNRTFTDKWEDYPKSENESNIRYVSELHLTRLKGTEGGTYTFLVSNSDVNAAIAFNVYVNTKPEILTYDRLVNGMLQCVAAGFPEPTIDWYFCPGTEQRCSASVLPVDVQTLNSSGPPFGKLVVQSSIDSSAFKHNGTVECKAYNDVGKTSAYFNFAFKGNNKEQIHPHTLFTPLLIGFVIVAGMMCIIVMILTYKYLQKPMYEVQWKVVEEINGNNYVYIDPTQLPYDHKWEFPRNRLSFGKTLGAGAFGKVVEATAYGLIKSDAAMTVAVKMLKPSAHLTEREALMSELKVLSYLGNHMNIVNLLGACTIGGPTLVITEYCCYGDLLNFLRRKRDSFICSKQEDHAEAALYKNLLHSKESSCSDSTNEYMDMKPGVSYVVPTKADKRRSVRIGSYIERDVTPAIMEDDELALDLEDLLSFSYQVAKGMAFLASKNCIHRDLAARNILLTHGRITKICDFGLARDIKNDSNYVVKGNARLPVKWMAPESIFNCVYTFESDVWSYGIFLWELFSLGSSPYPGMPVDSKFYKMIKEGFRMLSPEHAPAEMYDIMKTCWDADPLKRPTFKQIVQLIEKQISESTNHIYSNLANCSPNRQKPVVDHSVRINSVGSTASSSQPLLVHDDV
Chain of UniProt O95819 (whole entry, looked up): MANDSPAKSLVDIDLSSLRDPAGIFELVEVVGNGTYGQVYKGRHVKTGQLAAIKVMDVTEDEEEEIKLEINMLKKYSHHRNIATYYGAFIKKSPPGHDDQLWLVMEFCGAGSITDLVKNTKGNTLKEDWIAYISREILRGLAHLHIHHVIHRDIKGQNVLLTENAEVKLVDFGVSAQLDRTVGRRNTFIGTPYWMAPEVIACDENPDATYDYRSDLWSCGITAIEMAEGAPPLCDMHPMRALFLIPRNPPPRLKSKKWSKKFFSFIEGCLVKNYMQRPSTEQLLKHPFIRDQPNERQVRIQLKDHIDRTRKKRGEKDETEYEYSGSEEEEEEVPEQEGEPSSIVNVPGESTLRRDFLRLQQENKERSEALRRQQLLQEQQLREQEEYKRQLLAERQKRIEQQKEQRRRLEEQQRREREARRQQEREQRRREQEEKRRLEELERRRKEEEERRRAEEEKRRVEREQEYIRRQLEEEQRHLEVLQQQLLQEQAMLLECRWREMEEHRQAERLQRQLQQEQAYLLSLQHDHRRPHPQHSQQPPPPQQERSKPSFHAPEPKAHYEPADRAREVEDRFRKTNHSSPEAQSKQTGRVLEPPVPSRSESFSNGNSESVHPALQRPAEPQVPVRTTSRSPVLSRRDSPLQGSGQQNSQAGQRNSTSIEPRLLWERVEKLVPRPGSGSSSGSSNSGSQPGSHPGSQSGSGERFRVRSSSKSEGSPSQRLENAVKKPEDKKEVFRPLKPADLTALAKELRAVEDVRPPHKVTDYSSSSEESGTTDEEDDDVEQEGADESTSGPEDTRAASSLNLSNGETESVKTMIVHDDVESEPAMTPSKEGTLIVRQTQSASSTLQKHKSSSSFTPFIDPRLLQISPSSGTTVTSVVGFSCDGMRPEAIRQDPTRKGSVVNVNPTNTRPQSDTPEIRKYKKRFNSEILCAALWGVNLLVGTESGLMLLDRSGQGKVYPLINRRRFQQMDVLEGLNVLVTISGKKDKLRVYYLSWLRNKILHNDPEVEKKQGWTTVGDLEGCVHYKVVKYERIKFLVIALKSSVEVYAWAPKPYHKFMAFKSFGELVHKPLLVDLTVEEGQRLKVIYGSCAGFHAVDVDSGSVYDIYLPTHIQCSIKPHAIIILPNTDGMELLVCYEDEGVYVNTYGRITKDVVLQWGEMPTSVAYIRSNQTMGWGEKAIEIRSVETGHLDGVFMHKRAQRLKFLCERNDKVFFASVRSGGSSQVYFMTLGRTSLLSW
Chain of UniProt Q9NRM7 (whole entry, looked up): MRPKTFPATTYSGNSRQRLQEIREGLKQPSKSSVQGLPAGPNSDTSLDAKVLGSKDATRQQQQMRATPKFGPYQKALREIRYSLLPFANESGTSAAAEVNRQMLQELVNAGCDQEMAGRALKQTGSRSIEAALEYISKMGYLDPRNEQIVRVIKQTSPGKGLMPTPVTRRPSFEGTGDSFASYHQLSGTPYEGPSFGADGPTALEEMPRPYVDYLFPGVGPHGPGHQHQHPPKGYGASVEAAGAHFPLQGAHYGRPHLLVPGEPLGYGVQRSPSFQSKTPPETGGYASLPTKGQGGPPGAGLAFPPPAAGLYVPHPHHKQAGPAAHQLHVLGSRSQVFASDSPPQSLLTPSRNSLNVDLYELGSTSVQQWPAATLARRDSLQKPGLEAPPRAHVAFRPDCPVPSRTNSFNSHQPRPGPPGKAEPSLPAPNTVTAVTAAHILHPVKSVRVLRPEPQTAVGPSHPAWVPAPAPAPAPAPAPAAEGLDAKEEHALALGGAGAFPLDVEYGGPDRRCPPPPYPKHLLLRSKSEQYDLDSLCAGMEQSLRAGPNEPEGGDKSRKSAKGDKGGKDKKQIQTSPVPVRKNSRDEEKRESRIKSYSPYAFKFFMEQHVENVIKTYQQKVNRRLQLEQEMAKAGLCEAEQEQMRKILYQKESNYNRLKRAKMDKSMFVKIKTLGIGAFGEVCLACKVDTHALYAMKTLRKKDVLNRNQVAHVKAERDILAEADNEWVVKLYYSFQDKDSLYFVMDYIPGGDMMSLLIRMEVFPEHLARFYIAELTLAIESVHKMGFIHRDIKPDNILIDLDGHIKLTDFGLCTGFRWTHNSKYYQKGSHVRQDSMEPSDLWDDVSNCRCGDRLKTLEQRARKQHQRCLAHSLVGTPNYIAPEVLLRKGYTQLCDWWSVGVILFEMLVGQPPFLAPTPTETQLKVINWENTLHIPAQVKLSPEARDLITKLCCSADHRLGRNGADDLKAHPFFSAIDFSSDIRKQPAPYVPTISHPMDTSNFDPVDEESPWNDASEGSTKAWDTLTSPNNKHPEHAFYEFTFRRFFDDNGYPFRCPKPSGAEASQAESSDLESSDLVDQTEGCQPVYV
Chain of UniProt Q15208 (whole entry, looked up): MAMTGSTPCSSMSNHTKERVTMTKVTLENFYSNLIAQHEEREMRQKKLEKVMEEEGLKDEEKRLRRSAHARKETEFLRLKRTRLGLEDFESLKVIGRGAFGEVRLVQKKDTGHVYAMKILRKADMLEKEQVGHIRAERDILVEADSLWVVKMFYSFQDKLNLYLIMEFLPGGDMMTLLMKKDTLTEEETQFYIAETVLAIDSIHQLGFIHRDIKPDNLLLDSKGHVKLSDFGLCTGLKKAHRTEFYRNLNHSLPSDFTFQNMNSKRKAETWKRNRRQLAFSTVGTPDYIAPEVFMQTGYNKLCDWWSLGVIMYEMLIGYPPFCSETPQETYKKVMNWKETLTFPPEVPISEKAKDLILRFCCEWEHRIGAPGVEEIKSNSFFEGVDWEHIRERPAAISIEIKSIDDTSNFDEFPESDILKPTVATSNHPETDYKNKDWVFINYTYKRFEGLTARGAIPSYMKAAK
Chain of UniProt Q00532 (whole entry, looked up): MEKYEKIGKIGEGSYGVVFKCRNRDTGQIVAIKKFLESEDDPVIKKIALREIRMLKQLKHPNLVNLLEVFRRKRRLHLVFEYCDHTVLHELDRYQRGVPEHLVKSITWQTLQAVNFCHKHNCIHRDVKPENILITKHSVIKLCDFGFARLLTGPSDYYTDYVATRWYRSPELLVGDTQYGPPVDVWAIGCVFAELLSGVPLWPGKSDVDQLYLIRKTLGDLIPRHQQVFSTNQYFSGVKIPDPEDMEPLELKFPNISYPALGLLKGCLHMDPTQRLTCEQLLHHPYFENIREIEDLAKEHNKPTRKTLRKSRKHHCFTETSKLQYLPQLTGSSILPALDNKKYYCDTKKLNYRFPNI
Chain of UniProt O14733 (whole entry, looked up): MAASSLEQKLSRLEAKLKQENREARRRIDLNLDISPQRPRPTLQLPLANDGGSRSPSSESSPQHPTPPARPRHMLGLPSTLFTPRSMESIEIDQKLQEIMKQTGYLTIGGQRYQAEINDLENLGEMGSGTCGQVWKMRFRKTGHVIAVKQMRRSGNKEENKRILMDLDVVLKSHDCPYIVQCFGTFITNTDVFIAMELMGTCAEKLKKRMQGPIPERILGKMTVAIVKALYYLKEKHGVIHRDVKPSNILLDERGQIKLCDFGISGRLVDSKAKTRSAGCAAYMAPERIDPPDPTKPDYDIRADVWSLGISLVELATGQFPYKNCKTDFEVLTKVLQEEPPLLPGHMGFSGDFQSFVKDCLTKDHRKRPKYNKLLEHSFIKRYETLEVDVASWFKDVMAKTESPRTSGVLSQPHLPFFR
Chain of UniProt Q9UQM7 (whole entry, looked up): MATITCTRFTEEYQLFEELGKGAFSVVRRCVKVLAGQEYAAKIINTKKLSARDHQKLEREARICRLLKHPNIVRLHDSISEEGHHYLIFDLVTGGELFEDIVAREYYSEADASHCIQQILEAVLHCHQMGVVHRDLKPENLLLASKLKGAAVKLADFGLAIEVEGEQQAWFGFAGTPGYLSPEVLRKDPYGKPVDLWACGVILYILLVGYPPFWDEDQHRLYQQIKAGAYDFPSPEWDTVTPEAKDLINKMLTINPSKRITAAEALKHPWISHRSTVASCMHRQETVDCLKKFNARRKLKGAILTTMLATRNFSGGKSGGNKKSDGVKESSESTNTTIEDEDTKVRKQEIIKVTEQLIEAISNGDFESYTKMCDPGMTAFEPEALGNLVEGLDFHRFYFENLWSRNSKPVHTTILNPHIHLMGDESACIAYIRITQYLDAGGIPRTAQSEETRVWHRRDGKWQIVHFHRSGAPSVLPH

Sample 1 — method: competition with immobilised ligand; tested at: 1 µM; quantity: remaining binding
SMILES: COc1cc(-c2cn(C3CCc4c(F)cccc4N(CC(F)(F)F)C3=O)nn2)ccc1-n1cnc(C)c1 (stereo not shown)
Ribosomal protein S6 kinase alpha-4, C-terminal kinase domain (RPS6KA4, Homo sapiens, UniProt O75676); cell-free assay: 100%
SRPK2 (Homo sapiens, UniProt P78362); cell-free assay: 100%
EGFR (Homo sapiens, UniProt P00533, del752-759); cell-free assay: 98%
SRMS (Homo sapiens, UniProt Q9H3Y6); cell-free assay: 100%
KIT (Homo sapiens, UniProt P10721, V559D/V654A); cell-free assay: 97%
MAP2K7 (Homo sapiens, UniProt O14733); cell-free assay: 100%
TAOK1 (Homo sapiens, UniProt Q7L7X3); cell-free assay: 100%
CDKL1 (Homo sapiens, UniProt Q00532); cell-free assay: 100%
KIT (Homo sapiens, UniProt P10721, D816V); cell-free assay: 100%
Tyrosine-protein kinase ABL1, phosphorylated (ABL1, Homo sapiens, UniProt P00519, M351T); cell-free assay: 95%
MYLK (Homo sapiens, UniProt Q15746); cell-free assay: 81%
EGFR (Homo sapiens, UniProt P00533, L861Q); cell-free assay: 100%
LATS2 (Homo sapiens, UniProt Q9NRM7); cell-free assay: 100%
CLK4 (Homo sapiens, UniProt Q9HAZ1); cell-free assay: 100%
STK38 (Homo sapiens, UniProt Q15208); cell-free assay: 89%
MAP4K4 (Homo sapiens, UniProt O95819); binding: 0%
STK3 (Homo sapiens, UniProt Q13188); cell-free assay: 100%
ERBB3 (Homo sapiens, UniProt P21860); cell-free assay: 98%
HIPK1 (Homo sapiens, UniProt Q86Z02); cell-free assay: 100%
TNIK (Homo sapiens, UniProt Q9UKE5); cell-free assay: 94%
DYRK1A (Homo sapiens, UniProt Q13627); cell-free assay: 84%
EPHB1 (Homo sapiens, UniProt P54762); cell-free assay: 100%
BRSK1 (Homo sapiens, UniProt Q8TDC3); cell-free assay: 92%
CIT (Homo sapiens, UniProt O14578); cell-free assay: 100%
PIK3CD (Homo sapiens, UniProt O00329); cell-free assay: 100%

Sample 2 — species: human; sample: microsomes or S9; tested at: 2 µM; time: 0.5 h; quantity: remaining compound
CC1=C(C(=O)NC2CCN(Cc3ccc(OCCCN(C)C)cc3)CC2)Cc2ccccc21: 97.4%
CCOC(=O)c1c(N)sc2c1CCC(NC(=O)OC(C)(C)C)C2 (stereo not shown): 97.7%
O=c1ccc2cnc(Nc3cnn(C4CCNCC4)c3)nc2n1C1CCCCCC1: 74.7%
CC1=NOC(C)(CNC(=O)c2cc(C)ccc2C)C1 (stereo not shown): 73.8%
COc1cccc(-c2csc(C3(c4ccc(OC)c(C)c4)N=C(N)N(C)C3=O)n2)c1 (stereo not shown): 41.6%
CCOc1ccc(S(=O)(=O)Nc2cnc3ccccc3c2)cc1: 63.8%
CCn1ccc(C(=O)N2C[C@@H](F)C[C@H]2Cn2cc(C(N)=O)nn2)n1: > 100%
CCc1c(OCC(=O)Nc2cc(OC)c(OC)c(OC)c2)c(=O)ccn1CCO: 75.1%
CN(/C=N/c1c(F)c(F)cc(F)c1F)/C=N/c1c(F)c(F)cc(F)c1F: 53.3%
CC1(C)CC(=O)C2=C(C1)c1c(ccc3ncccc13)NC2c1ccc(F)cc1 (stereo not shown): 16.9%

Sample 3 — observed: enzyme activity; action: inhibitor; tested at: 0.5 µM; reference: control; quantity: remaining activity
Target: Activin receptor type-1 (ACVR1, Homo sapiens, UniProt Q04771)
Construct (Q04771 1-509): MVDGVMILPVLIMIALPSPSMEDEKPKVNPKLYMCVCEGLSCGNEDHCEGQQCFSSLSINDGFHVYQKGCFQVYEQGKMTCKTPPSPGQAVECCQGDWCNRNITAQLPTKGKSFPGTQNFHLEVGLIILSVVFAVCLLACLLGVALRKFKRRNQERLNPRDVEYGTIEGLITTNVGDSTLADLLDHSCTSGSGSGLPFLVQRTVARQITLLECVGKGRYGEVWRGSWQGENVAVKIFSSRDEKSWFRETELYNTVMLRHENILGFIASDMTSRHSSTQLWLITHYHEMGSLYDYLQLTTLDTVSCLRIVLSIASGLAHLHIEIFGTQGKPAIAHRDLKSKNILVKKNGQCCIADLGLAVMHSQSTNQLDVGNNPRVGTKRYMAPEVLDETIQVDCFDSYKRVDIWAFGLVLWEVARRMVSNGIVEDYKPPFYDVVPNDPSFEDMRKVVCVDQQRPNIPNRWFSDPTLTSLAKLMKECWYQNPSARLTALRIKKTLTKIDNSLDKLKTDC
CC(C)c1nn(-c2c(Cl)cccc2Cl)c2nc(Cc3ccc(OCCO)cc3)[nH]c(=O)c12: 94.7%
Cc1nc(Nc2ncc(C(=O)Nc3c(C)cccc3Cl)s2)cc(N2CCN(CCO)CC2)n1: 197%
COc1ccc(Cl)cc1NC(=O)Nc1cc(C)nc2ccccc12: 76.2%
O=C(Nc1ccc(Cl)cc1)c1ccccc1NCc1ccncc1: 97.2%
CS(=O)(=O)CCNCc1ccc(-c2ccc3ncnc(Nc4ccc(OCc5cccc(F)c5)c(Cl)c4)c3c2)o1: 106%
COc1cc2ncnc(N3CCN(C(=O)Nc4ccc(Oc5ccccc5)cc4)CC3)c2cc1OC: 100%
Nc1[nH]nc2nnc(-c3c(-c4ccccc4)nn4ccccc34)cc12: 107%
CC(C)[C@H](CO)Nc1nc(Nc2cccc(Cl)c2)c2ncn(C(C)C)c2n1: 92.6%
O=c1cc(N2CCOCC2)oc2c1ccc1ccccc12: 107%
O=C1NC(=O)/C(=C/c2ccc3nccnc3c2)S1: 102%
COc1cc2ncnc(Nc3ccc(OCc4ccccc4)cc3)c2cc1OC: 101%
Cn1cnc2cc3c(Nc4cccc(Br)c4)ncnc3cc21: 109%
C[S+]([O-])c1ccc(-c2nc(-c3ccncc3)c(-c3ccc(F)cc3)[nH]2)cc1 (stereo not shown): 97.4%
CCN1/C(=C/C(C)=O)Sc2ccc(OC)cc21: 88.1%
Cc1ccc(NC(=O)c2ccc(CN3CCN(C)CC3)cc2)cc1Nc1nccc(-c2cccnc2)n1: 101%
COc1ccc(-c2cnc3c(-c4ccsc4)cnn3c2)cc1: 91.1%
CN(C)CCCn1cc(C2=C(c3c[nH]c4ccccc34)C(=O)NC2=O)c2ccccc21: 96.3%
CCC(=O)Nc1ccc2ncnc(Nc3cccc(Br)c3)c2c1: 93.7%
Cn1cc(/C=C2\C(=O)Nc3ccc(S(N)(=O)=O)cc32)c2ccccc21: 111%
COc1cc2ncc(-c3ccccc3)nc2cc1OC: 99.3%
CCOc1cc2ncnc(Nc3cccc(Br)c3)c2cc1OCC: 97.1%
CC(=O)O/N=C1/C(c2c(O)[nH]c3cc(Br)ccc23)=Nc2ccccc21: 102%

Further values, each from its own experiment
C[C@H](O)[C@H](N)C(=O)O  inhibition (Calcium/calmodulin-dependent protein kinase type II subunit alpha (CAMK2A, Homo sapiens, UniProt Q9UQM7); enzyme activity, inhibitor; 10 µM): -46%

A few entries again (sample 2):
CCc1c(OCC(=O)Nc2cc(OC)c(OC)c(OC)c2)c(=O)ccn1CCO: 75.1%
CN(/C=N/c1c(F)c(F)cc(F)c1F)/C=N/c1c(F)c(F)cc(F)c1F: 53.3%
CC1(C)CC(=O)C2=C(C1)c1c(ccc3ncccc13)NC2c1ccc(F)cc1 (stereo not shown): 16.9%
